Results gathered from unrelated publications.
Parts stem from different laboratories: compare values within a part only.
Chain of UniProt O24410 (whole entry, looked up): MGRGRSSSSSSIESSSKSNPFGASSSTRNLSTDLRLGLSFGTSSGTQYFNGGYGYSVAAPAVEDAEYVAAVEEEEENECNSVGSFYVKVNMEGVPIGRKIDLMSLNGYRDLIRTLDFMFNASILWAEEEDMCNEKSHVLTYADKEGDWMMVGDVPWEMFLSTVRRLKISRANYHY
Chain of UniProt Q9FKM7 (whole entry, looked up): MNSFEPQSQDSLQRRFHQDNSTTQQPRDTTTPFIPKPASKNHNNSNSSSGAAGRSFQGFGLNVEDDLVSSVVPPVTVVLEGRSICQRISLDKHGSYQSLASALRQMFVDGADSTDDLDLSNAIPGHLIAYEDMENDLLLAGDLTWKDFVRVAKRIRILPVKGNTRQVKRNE
Chain of UniProt Q9LQE8 (whole entry, looked up): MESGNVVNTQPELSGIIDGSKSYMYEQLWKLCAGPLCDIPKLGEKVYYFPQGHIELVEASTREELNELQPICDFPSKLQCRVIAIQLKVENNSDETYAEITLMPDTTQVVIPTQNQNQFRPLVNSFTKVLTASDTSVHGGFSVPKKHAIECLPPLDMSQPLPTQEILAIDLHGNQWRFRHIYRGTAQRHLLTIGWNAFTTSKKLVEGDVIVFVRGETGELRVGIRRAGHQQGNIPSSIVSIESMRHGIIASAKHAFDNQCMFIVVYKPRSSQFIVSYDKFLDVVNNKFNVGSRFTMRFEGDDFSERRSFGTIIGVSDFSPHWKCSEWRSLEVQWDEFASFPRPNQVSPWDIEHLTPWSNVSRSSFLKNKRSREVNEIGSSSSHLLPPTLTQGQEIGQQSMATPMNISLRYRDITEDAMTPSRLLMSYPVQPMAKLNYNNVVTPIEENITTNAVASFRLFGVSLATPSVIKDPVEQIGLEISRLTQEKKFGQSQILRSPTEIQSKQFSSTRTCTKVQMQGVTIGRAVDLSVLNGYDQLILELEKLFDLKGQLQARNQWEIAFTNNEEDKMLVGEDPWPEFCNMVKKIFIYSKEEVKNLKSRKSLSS

Block 1
Target: Histone acetyltransferase KAT6A, both winged helices, GST fusion (KAT6A, Homo sapiens, UniProt Q92794, residues 1-181)
Method: protein binding microarray
Molecule type: double-stranded DNA, one strand shown
Matrix: in vitro
Tested at: not given
Notes: 8-mer, flanks averaged, mean of 2 arrays, mostly near background
Reference: not given
Direction: higher = stronger binding
Quantity: E-score
Target sequence (chain): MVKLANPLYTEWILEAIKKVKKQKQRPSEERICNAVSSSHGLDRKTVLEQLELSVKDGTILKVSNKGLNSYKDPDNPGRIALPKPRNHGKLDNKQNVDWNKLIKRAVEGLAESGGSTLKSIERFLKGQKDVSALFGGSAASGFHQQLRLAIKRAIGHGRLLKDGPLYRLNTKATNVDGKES
ACCGCTAC: 0.213
CAGGAGTC: -0.126
ATGATCAC: -0.0376
CAAGCCTA: -0.0667
AGCCACTG: -0.13
AATGTTCT: -0.111
ATGCTCAG: -0.16
CACGGGCC: 0.163
AACAACGG: 0.158
CCACCAAG: -0.2
GAGGACTA: -0.068
CTACTCGC: 0.0588
AAAGCGGT: 0.211
AAGAAGTG: -0.149
CGTGTAAG: 0.0158
GGAGGACC: 0.0145
AACTGAAT: -0.114

Block 2
Target: RNA binding protein fox-1 homolog 2, RRM domain, GST-SBP tag (RBFOX2, Homo sapiens, UniProt O43251-10, residues 100-194)
Method: RNA Bind-n-Seq
Molecule type: RNA
Matrix: in vitro
Tested at: 365 nM
Notes: natural RNA segment, single round, ends assumed
Reference: no-protein control
Direction: higher = stronger binding
Quantity: RBNS enrichment (R)
Target sequence (chain): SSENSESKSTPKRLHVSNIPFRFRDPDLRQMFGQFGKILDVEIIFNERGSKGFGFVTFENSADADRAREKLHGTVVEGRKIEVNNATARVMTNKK
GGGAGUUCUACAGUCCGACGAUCUCUUCCUCUGCUGUCGAGACGUUCCUGUCUGCUUCCCGGGAGCCUCACGUGCUCCUUGUCCUAACCAGCCCCCGCGCGCCAUCUUCCCGUGGAGUGUGGGGAAGCUGCUGUGGAAUUCUCGGGUGCCAA: 0.225
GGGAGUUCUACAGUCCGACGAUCACGGAUGCCUGCCACCGCCGGGGCAGGGCCAGAUGCCGAUGCUGGGUGUCCAGACUCAGAAGGCUUGAUCUGGGUUCCCUGUAAAGAGAGAGUGAAUUUCAGUAUACAGAUGGAAUUCUCGGGUGCCAA: 0.686
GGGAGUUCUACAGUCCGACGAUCUCUUUGGAUGCUCACGGGUUCUGUUCCAGUGCUAUUUUCUAUGAAUAUAGCAGCAUCGUUUCCUUUUUCAGUGAAAUUUCAACCAUAAGUAGAAAAGAAUUGUUUACUAUUGGAAUUCUCGGGUGCCAA: 0.301
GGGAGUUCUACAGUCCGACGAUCAAGCAAGACUGGGACCUUAGAAAUCAUUGUAGAAACACAGUUUUGAAAGAAAAAUACCAUGUCUCUAAGCCAACUUUAAUUGCUUAAAAGACAUUUUUAUUUAGUUGAAAUGGAAUUCUCGGGUGCCAA: 0.391
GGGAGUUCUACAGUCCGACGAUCUCAAACAGAAUGAACUGCUAGAGCCCAACUCUUUUAAUACACCAAAGGAAUUAUGGGUGGGUAUUUUUUUAAUUGAACUCAUUUUUCGGUUGUCUGACCAUAACAUGAUUUGGAAUUCUCGGGUGCCAA: 0.585
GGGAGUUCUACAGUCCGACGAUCCUGCCGUGUUUCUUACCCUCCCUUGAAGUUUCUCUAAGCUCAUCACAGCCUAGAGUUCAGGAAAGUUAAUCCACACAGAAGCACAAUUUUGUCCUCUUCCAGACACUGUUUGGAAUUCUCGGGUGCCAA: 0.36
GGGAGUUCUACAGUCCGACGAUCCAAGGUGGCAAAAAUUAGCUAUACUGAUGUAAUUGUCAUUUACCUGGGUAUGAAUUCCCUGACACACAUUCAUGUCAACAUAUGUAGCAAAUUUUGUGAAAACAUAACAAUGGAAUUCUCGGGUGCCAA: 0.616
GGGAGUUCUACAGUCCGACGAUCUUAAGAAUGUUCACUUAUAGGACCAAAAUAUAAAUAAAAACUUUCAAAUAUGUUUGAUUUUAAAUUAGUCUGCUUUGUCCUUUCGUGUUUCUUGAUAUGUUCUUCAUUUUUGGAAUUCUCGGGUGCCAA: 5.13

Block 3
Target: Interferon regulatory factor 3, full length, phosphomimetic (IRF3, Homo sapiens, UniProt Q14653, residues 1-427, S386D/S396D/S398D/S402D/T404D/S405D)
Chain of UniProt Q14653 (whole entry, unmodified, looked up): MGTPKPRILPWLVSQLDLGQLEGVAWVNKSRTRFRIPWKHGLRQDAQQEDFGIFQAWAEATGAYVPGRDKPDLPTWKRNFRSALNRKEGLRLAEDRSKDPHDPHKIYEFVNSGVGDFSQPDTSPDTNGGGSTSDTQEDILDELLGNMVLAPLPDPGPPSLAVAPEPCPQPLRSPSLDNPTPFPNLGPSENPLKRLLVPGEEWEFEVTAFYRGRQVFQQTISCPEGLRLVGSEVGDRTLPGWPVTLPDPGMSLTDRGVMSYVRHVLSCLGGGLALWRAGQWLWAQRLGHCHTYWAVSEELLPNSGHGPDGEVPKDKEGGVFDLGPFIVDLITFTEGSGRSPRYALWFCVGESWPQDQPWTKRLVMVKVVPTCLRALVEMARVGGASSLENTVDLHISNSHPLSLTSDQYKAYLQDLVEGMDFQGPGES
Method: protein-binding microarray
Molecule type: double-stranded DNA, one strand shown
Matrix: in vitro
Tested at: 2540 nM top
Notes: 60-bp whole probe
Added: salmon DNA 0.4 mg/ml
Reference: random background probes
Direction: higher = stronger binding
Quantity: fitted relative affinity
Constant ends, left off below: GCCTAGCAC … GTCTTGATTCGCTTGACGCTGCTG
TTAGGGCTCCTTCTCCTTTAGTGCTAG: 2.69 z-score
GACGGACTGCTTCTCCTTACGTGCTAG: -0.0632 z-score
ACCCCAAAGAGGGGCAGTGTGTGCTAG: -0.033 z-score
TTAGATATCAAACTGGATTAGTGCTAG: -0.0335 z-score
GACGACTTCAGTCTCGAGACGTGCTAG: -0.0587 z-score
TTAGGACTGGGACAGGGTTAGTGCTAG: -0.871 z-score
GACGATCTCAATCTCGAGACGTGCTAG: 1 z-score
TTAGATCTCTGTCTCGATTAGTGCTAG: 0.194 z-score
GTGGTTTTCATTATTGCTTCGTGCTAG: 2.69 z-score
GACGATTTCAGTTCCGAGAAGTGCTAG: 3.19 z-score
TCATCTCTTTCCTTCTTACTGTGCTAG: 5.9 z-score
GACGATTTCAGTATTGAGACGTGCTAG: 2.02 z-score
GTGGGACCCATGAACACTCAGTGCTAG: -0.744 z-score
TCAACTCGCCTTTTTTGACTGTGCTAG: 1.5 z-score
TCACCTTCTACTCTCCTACTGTGCTAG: 2.08 z-score
TTAGGACTGCTTTTCCTTTTGTGCTAG: 1.75 z-score
GACGGTCTCGGTTTCGGGAGGTGCTAG: 3.54 z-score
TAATATATATATTGTTAGTGTGTGCTA: 0.273 z-score
TTAGATGCCAGTTTCGATTAGTGCTAG: 3.37 z-score

Block 4
Molecule: B1 (IAA9)
Method: two-hybrid
Direction: higher = firmer interaction
Quantity: positive tests
B1: IAA9 (Arabidopsis thaliana, UniProt Q38827); chain MSPEEELQSNVSVASSSPTSNCISRNTLGGLKEHNYLGLSDCSSVGSSTLSPLAEDDKATISLKATELTLGLPGSQSPARDTELNLLSPAKLDEKPFFPLLPSKDEICSSSQKNNASGNKRGFSDTMDQFAEAKSSVYTEKNWMFPEAAATQSVTKKDVPQNIPKGQSSTTNNSSSPPAAKAQIVGWPPVRSYRKNTLATTCKNSDEVDGRPGSGALFVKVSMDGAPYLRKVDLRSYTNYGELSSALEKMFTTFTLGQCGSNGAAGKDMLSETKLKDLLNGKDYVLTYEDKDGDWMLVGDVPWEMFIDVCKKLKIMKGCDAIGLAAAPRAMEKSKMRA
ARF14 497-605 (Arabidopsis thaliana, UniProt Q9LQE8); reference: out of 2 tests: 0
IAA33 (Arabidopsis thaliana, UniProt Q9FKM7); reference: out of 2 tests: 0
IAA20 (Arabidopsis thaliana, UniProt O24410); weak activation fusion; reference: out of 0 tests: 0

For quick reference, copied from above (block 3):
GACGATCTCAATCTCGAGACGTGCTAG: 1 z-score
TTAGATCTCTGTCTCGATTAGTGCTAG: 0.194 z-score
